Experimental data pooled from the literature.
Parts stem from different laboratories: compare values within a part only. Substitutions count along the parent as printed.

Set 1
Target: Sal-like protein 4, full length isoform B (SALL4, Homo sapiens, UniProt Q9UJQ4-2, residues 1-616)
Technique: universal PBM
Molecule type: double-stranded DNA, one strand shown
Matrix: in vitro
Concentration: not given
Setting: 8-mer, flanks averaged, mean of replicates
Direction: higher = stronger binding
Measurement: E-score
Construct (chain): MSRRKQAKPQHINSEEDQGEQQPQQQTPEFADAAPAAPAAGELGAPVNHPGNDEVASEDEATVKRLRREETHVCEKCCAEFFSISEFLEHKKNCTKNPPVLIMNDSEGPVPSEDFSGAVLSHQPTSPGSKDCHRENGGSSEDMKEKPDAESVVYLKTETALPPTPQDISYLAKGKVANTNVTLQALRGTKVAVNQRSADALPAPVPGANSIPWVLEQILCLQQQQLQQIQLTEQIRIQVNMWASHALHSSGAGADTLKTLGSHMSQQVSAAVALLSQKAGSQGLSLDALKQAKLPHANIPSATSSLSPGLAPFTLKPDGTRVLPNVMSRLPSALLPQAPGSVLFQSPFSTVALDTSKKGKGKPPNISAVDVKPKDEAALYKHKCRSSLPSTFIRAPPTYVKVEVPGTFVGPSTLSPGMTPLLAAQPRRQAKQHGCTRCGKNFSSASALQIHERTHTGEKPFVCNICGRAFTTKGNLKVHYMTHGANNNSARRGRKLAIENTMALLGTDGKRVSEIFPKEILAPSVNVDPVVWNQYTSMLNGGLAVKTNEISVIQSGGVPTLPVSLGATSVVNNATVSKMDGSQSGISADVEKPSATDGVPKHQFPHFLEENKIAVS
Strand = TGTTAACA; value = 0.256
Strand = ATTCACTG; value = 0.117
Strand = AACGTGCG; value = -0.0884
Strand = ACTTAGGA; value = 0.033
Strand = CAGGACGC; value = -0.175
Strand = AACATTCG; value = -0.0536
Strand = ATGTCGGG; value = -0.0901
Strand = CAAATACG; value = 0.00102

Set 2
Target: ABI1, truncated, D143A, DHFR fusion (Arabidopsis thaliana)
Technique: DHFR PCA, deep sequencing
Matrix: yeast
Setting: methotrexate growth selection, single substitutions
Added: (+)-ABA 0.032 µM
Baseline: wild-type fitted maximum
Direction: higher = stronger binding
Measurement: relative binding score
Starting sequence: PYL1, truncated, DHFR fusion (Arabidopsis thaliana); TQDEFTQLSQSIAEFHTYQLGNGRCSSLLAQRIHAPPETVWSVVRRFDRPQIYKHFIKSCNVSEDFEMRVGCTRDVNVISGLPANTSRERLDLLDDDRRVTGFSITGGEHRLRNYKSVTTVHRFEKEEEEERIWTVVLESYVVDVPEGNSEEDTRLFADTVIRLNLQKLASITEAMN
Change = L93H; value = 3.07%
Change = T119S; value = -0.36%
Change = T17V; value = -1.13%
Change = A175M; value = 14.8%
Change = V118L; value = 2.49%
Change = M68R; value = -1.39%
Change = S140Y; value = 5.55%

Set 3
Target: CCNA1, cyclin fold, Cln2 fusion (human)
Technique: yeast growth competition, sequencing
Matrix: yeast
Setting: weak parent motif
Baseline: not given
Direction: higher = stronger binding
Measurement: normalised enrichment score
Starting sequence: SCAPER docking peptide (human); SNARRSLNFGGST
Change = SNARRSLNFGKST [G11K]; value = 0.892
Change = ENARRSLNFGGST [S1E]; value = 0.159
Change = SNARVSLNFGGST [R5V]; value = 0.39
Change = SNARRSLNFGNST [G11N]; value = 0.489
Change = SNARRSLNFGSST [G11S]; value = 0.597
Change = SNARRSLGFGGST [N8G]; value = 0.317
Change = SNARRSPNFGGST [L7P]; value = 0.261
Change = SNAGRSLNFGGST [R4G]; value = 0.378
Change = SNARRSLNFGHST [G11H]; value = 0.614
Change = SNARRSLNFGGSY [T13Y]; value = 0.49
Change = SNARRSFNFGGST [L7F]; value = -0.00813
Change = SNARRSLNFGGSW [T13W]; value = 0.427

Other studies, line by line
Substance = PhoQ, residues 284 288 289 292 302 303 ASSHFY; target = PhoP, residues 12 14 15 18 19 NQGLL (Escherichia coli, UniProt P23836); test = Sort-seq, item: YFP reporter; test system = E. coli; conditions = PhoQ-PhoP variant library, added: 10 µM Mg2+; how to read = baseline: high Mg2+ state, higher = stronger signaling; measurement = fold induction; value = 6.12

Some of these lines once more (set 2):
Change = M68R; value = -1.39%
Change = S140Y; value = 5.55%
